Published values pooled from the literature.
Numbered parts are unrelated; each lists some results of a single study.
Chain of UniProt P51817 (whole entry, looked up): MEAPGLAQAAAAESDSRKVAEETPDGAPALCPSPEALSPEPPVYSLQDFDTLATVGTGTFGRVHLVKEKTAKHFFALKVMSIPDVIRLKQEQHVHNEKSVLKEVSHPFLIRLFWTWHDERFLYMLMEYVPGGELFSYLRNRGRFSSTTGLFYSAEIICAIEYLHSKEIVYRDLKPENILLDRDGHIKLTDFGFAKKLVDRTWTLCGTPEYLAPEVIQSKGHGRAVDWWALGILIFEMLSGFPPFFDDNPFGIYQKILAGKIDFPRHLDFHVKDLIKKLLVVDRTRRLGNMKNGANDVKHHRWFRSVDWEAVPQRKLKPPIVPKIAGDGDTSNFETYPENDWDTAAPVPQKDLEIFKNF
Chain of UniProt Q8N568 (whole entry, looked up): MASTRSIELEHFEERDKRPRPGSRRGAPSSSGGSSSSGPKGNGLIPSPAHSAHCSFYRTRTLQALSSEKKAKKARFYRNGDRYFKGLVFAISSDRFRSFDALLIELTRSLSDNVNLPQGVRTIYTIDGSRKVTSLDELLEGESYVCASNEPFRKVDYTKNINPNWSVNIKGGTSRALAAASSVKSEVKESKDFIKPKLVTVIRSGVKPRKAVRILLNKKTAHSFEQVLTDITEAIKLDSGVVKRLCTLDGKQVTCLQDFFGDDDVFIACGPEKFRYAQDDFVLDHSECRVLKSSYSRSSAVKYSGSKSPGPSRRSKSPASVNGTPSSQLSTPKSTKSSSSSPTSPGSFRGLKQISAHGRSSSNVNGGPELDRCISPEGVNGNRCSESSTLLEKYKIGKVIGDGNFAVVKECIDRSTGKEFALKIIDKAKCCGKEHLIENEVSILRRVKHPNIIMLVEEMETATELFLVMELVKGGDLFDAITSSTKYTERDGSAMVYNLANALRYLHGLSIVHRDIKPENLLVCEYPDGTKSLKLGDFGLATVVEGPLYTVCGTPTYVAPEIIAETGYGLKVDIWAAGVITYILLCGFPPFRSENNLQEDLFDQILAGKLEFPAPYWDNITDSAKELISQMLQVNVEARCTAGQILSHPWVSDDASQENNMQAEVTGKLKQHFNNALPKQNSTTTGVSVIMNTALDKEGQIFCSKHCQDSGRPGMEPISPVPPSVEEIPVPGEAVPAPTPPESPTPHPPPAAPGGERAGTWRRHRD
Chain of UniProt P15056 (whole entry, unmodified, looked up): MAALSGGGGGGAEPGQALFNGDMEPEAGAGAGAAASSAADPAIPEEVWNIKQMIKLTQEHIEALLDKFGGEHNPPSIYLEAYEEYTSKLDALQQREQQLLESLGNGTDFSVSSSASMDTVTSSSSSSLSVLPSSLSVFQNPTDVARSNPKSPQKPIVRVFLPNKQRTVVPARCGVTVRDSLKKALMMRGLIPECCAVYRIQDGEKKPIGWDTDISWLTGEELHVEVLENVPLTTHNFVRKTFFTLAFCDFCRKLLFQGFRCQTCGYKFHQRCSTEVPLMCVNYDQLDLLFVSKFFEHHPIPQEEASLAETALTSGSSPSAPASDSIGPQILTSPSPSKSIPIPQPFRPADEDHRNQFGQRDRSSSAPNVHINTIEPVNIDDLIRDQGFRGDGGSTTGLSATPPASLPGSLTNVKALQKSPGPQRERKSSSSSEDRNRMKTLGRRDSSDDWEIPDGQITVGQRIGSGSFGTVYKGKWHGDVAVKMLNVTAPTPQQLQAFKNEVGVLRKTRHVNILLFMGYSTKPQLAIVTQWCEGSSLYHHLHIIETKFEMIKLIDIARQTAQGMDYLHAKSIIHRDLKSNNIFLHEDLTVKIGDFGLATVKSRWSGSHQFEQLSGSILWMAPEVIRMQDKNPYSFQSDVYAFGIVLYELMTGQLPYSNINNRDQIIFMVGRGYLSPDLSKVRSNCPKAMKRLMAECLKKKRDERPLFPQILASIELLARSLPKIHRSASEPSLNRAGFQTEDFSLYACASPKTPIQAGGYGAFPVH
Chain of UniProt Q13237 (whole entry, looked up): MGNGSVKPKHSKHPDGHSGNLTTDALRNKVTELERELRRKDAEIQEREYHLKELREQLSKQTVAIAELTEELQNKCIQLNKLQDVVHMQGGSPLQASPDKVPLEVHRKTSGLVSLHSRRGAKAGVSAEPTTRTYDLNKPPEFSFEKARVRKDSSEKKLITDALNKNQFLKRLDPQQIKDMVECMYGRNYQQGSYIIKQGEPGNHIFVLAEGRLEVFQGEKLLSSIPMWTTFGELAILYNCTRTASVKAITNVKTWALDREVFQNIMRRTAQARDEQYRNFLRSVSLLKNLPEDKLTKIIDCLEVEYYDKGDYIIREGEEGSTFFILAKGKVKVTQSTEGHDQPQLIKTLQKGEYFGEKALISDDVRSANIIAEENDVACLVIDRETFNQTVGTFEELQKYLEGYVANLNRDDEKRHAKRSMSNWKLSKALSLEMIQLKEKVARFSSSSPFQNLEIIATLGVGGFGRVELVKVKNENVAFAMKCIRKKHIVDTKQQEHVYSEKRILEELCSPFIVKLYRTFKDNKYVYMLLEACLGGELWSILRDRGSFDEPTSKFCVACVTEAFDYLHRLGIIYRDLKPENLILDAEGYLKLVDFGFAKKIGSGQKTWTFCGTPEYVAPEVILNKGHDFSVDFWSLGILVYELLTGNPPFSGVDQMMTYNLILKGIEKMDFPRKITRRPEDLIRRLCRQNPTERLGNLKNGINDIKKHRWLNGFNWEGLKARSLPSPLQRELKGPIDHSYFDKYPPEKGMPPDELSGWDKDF
Chain of UniProt Q16566 (whole entry, looked up): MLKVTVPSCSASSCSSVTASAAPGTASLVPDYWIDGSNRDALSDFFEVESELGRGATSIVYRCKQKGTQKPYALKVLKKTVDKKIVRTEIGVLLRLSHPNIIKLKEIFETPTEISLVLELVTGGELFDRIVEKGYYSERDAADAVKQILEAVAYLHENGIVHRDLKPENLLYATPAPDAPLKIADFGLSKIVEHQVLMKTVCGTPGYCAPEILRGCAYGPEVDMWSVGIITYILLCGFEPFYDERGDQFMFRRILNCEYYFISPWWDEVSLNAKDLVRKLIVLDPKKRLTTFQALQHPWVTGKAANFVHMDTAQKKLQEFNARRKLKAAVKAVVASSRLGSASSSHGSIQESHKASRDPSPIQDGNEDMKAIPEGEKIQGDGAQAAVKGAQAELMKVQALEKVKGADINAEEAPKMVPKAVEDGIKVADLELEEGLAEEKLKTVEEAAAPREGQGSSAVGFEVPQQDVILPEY
Chain of UniProt P78356 (whole entry, looked up): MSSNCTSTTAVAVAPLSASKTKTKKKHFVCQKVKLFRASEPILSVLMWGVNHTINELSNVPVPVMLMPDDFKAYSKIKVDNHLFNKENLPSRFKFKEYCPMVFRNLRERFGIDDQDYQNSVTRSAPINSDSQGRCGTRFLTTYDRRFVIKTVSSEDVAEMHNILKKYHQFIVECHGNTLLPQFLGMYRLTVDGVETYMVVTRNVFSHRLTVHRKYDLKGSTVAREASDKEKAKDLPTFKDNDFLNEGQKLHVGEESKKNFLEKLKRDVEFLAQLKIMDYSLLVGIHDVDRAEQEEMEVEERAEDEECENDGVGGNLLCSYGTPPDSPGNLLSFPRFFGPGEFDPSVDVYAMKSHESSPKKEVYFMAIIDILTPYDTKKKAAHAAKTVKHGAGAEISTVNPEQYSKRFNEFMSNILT

Study 1 — read-out: cell-free assay; method: competition with immobilised ligand; concentration: 1 µM
SMILES: Cc1nc(C2CCN(C(=O)c3ccc(OC(F)(F)F)cc3N)CC2)c2ncc(N3CCN(C)CC3)cc2n1
target	remaining binding
KDR (Homo sapiens, UniProt P35968)	93%
EPHB6 (Homo sapiens, UniProt O15197)	100%
BRAF (Homo sapiens, UniProt P15056, V600E)	100%
PIP4K2B (Homo sapiens, UniProt P78356)	78%
EGFR (Homo sapiens, UniProt P00533, G719C)	100%
STK38L (Homo sapiens, UniProt Q9Y2H1)	100%
Ribosomal protein S6 kinase alpha-5, C-terminal kinase domain (RPS6KA5, Homo sapiens, UniProt O75582)	90%
PRKG2 (Homo sapiens, UniProt Q13237)	74%
PIK3C3 (Homo sapiens, UniProt Q8NEB9)	95%
CAMK4 (Homo sapiens, UniProt Q16566)	95%
PRKX (Homo sapiens, UniProt P51817)	100%
CAMK2B (Homo sapiens, UniProt Q13554)	100%
DCLK2 (Homo sapiens, UniProt Q8N568)	100%

Study 2 — read-out: enzyme activity; action: inhibitor; concentration: 0.5 µM; relative to: control
Target: Homeodomain-interacting protein kinase 1 (HIPK1, Homo sapiens, UniProt Q86Z02)
Chain of UniProt Q86Z02 (whole entry, looked up): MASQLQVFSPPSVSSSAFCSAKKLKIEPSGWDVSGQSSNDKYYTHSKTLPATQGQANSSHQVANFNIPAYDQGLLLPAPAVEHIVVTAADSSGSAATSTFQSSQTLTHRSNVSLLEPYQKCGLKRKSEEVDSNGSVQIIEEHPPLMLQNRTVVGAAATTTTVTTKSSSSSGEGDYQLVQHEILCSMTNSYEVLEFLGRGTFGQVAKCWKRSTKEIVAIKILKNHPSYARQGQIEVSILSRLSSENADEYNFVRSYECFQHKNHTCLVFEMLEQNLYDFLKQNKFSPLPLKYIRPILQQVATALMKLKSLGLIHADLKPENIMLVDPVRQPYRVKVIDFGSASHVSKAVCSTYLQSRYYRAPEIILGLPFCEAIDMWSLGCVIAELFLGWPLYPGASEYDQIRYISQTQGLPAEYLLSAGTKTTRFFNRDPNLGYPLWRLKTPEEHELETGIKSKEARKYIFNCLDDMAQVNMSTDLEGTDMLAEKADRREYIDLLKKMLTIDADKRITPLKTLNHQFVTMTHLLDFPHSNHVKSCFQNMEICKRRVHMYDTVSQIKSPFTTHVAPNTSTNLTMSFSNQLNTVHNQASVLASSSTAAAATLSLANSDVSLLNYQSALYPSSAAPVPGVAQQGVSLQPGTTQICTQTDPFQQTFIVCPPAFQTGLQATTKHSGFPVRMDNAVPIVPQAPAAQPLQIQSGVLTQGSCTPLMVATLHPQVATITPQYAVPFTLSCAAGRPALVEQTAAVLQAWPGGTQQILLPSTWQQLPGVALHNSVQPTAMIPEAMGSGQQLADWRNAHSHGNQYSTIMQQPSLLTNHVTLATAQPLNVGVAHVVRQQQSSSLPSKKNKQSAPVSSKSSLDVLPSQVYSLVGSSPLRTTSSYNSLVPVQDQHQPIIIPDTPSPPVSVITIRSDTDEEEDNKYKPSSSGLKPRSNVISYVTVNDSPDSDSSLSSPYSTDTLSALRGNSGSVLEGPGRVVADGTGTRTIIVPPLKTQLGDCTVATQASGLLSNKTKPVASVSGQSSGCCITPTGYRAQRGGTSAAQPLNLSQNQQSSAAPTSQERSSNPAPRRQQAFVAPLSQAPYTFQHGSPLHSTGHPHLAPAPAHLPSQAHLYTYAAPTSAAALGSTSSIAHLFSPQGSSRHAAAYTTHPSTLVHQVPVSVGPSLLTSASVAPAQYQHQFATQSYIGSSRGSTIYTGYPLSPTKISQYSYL
SMILES	remaining activity [%]
c1cc(-c2cnn3cc(-c4ccc(OCCN5CCCCC5)cc4)cnc23)ccn1	97.1
NC(=O)c1cccc(-c2cc(Nc3ccc(OC(F)(F)F)cc3)ncn2)c1	102
O=Nc1c(-c2c(O)[nH]c3ccccc23)[nH]c2ccccc12	98.9
CC(C)n1cnc2c(Nc3cccc(Cl)c3)nc(NCCO)nc21	99.8
C[C@@H](N)[C@H]1CC[C@H](C(=O)Nc2ccncc2)CC1	104
CNc1cc2c(Nc3cccc(Br)c3)ncnc2cn1	96.5
O=C(O)/C=C/c1cc(Br)c(Br)c(Br)c1Br	99.6
FC(F)(F)c1ccc(/C=C/c2nc(COc3ccc(CCCCn4ccnn4)cc3)co2)cc1	101
COc1cc2c(Nc3ccc(Br)cc3F)ncnc2cc1OCC1CCN(C)CC1	96.7
O=C1NC(=O)/C(=C/c2ccc3c(c2)OC(F)(F)O3)S1	95.9

Study 3 — method: universal PBM; form: double-stranded DNA, one strand shown; matrix: in vitro; concentration: not given; direction: higher = stronger binding
Target: Sal-like protein 4, full length isoform B (SALL4, Homo sapiens, UniProt Q9UJQ4-2, residues 1-616)
Notes: 8-mer, flanks averaged, mean of replicates
Sequence	E-score
AATTATCG	0.348
AATTAGCT	0.144
AACCTAAT	0.0949
AATTGCCA	0.135
TAACTGGA	0.0601
GCTGCGAA	-0.00849
ACGACCGG	-0.222
AGTGTTGG	-0.109

Study 4 — method: protein-binding microarray; form: double-stranded DNA, one strand shown; matrix: in vitro; concentration: not given; direction: higher = stronger binding
Target: Hepatocyte nuclear factor 3-beta, forkhead domain (FOXA2, Homo sapiens, UniProt Q9Y261, residues 142-269)
Notes: k-mer, scored over probes, only values ≥0.25
Construct (chain): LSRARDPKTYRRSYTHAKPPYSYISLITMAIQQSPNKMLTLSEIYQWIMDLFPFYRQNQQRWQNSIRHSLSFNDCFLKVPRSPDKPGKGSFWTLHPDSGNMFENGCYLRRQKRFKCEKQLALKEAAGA
Sequence	E-score
TGTTTAAA	0.32
GTTGAATA	0.265
GGTAAATA	0.38
ACGTATAT	0.307
TCATGACA	0.256
ATTATGTC	0.266
AATTACAA	0.344
ATTTACTG	0.27

Some of these lines once more (study 1):
target	remaining binding
KDR (Homo sapiens, UniProt P35968)	93%
EPHB6 (Homo sapiens, UniProt O15197)	100%
BRAF (Homo sapiens, UniProt P15056, V600E)	100%
